Published values pooled from the literature.
A part holds a random share of what one study measured. Substitutions count along the parent as printed.

Set 1 — technique: RNA Bind-n-Seq; molecule type: RNA; sample: in vitro; tested at: 1 µM; notes: whole 134-nt RNA, ends assumed; added: 150 mM KCl; relative to: input library; direction: higher = stronger binding
Target: Ras GTPase-activating protein-binding protein 1, RRM domain (G3BP1, Homo sapiens, UniProt Q13283)
Sequence of UniProt Q13283 (whole entry, looked up): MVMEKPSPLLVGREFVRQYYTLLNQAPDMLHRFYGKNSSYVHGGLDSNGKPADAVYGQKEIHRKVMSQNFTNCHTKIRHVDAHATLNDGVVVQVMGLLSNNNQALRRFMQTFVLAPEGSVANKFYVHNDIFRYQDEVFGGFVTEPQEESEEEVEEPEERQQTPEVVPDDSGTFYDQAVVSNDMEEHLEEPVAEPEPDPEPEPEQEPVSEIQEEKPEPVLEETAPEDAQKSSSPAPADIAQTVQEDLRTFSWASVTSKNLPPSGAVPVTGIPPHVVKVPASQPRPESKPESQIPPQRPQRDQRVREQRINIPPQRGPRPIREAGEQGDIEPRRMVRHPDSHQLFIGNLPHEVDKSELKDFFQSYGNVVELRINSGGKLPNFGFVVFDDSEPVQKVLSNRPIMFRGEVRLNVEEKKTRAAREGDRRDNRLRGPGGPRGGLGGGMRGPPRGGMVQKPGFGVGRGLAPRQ
Constant ends, left off below: GGGAGUUCUACAGUCCGACGAUC … UGGAAUUCUCGGGUGUCAAGG
Strand | log2 enrichment
GUCCUGUGCUACACAUCGUAUGUACCGAAUCGGAAAAAGGAAAAAGGGGAAAAAGGGGAAAGUAUUAUGUUACGCCGUUCGGAUCUGCAC | 0.0434
AGUUACUCAGUUCAUUUUGGAUAACUACAUUGAAAGAGGAAAAGGAUCUGCUUGCAGAAUAGUUUGUACUCAGCCAAGAAGAAUUAGUGC | -0.256
GUCCUGUGCUACACAUCGUAUGUACCGAAUCGGGGAAAAAGGGGAAAGGGGUUUGGGGAAAGUAUUAUGUUACGCCGUUCGGAUCUGCAC | 1.27
CCUGUGCUACACAUCGUAUGUACCGAAUCGGUUUUUUGGGGUUUUUUGGGGUUUUUUGGGGAAAGUAUUAUGUUACGCCGUUCGGAUCUG | -0.263
UGGUAGGUGGAUUUUGUUUAUUUUUUUAGCUCAUUUCCAGGGGUGGGAAUUUUUUUUUAAUAUGUGUCAUGAAUAAAGUUGUUUUUGAAA | 2.41
UCAAGUCCUGUGCUACACAUCGUAUGUACCGAAUCGGUUUUUGGAAAGGUUUGGAAAGUAUUAUGUUACGCCGUUCGGAUCUGCACUUCC | -0.295
GCAGGAAGUAAAAACAAAUGGAAAUGCUUCAGAUAGUGGCAGGGGUGGGGGUUGCUAAGGAAAGGGUGGGAUGGGAGUGGGUAAAGAGUU | 1.01
CAAGUCCUGUGCUACACAUCGUAUGUACCGAAUCGGUUUUGGGGUUUUGGUUUUGGAAAGUAUUAUGUUACGCCGUUCGGAUCUGCACUU | -0.287
UGGGAGGUGGAUUUUGUUUAUUUUUUUAGCUCAUUUCCAGGGGUAGGAAUUUUUUUUUAAUAUGUGUCAUGAAUAAAGUUGUUUUUGAAA | 1.48
CAAGUCCUGUGCUACACAUCGUAUGUACCGAAUCGGGGUUUGGUUUGGGGUUUGGGAAAGUAUUAUGUUACGCCGUUCGGAUCUGCACUU | -0.00765
GUCCUGUGCUACACAUCGUAUGUACCGAAUCGGGCCCCGGGGCCCCGGGGCCCCGGGGAAAGUAUUAUGUUACGCCGUUCGGAUCUGCAC | -0.742
UGGCCCUGGUGGUAUGCGGGGAGGAAGAGGUGGCCUCAUGGAUCGUGGUGGUCCCGGUGGAAUGUUCAGAGGUGGCCGUGGUGGAGACAG | 0.88
GAGUCCGGUUCGUGUUCGUCCGCGGAGAUCUCUCUCAUCUCGCUCGGCUGCGGGAAAUCGGGCUGAAGCGACUGAGUCCGCGAUGGAGGU | -0.402
AGUCCUGUGCUACACAUCGUAUGUACCGAAUCGGGCCCCGGCCCCGGGGCCCCGGGGAAAGUAUUAUGUUACGCCGUUCGGAUCUGCACU | -0.739

Set 2 — technique: RNA Bind-n-Seq; molecule type: RNA; sample: in vitro; tested at: not given; notes: RNA with constant flanks, ends assumed; relative to: input RNA pool; direction: higher = stronger binding
Target: RING finger protein unkempt homolog, zinc fingers 1-6, GST-SBP tag (UNK, Homo sapiens, UniProt Q9C0B0, residues 30-357)
Sequence of UniProt Q9C0B0 (30-357, looked up): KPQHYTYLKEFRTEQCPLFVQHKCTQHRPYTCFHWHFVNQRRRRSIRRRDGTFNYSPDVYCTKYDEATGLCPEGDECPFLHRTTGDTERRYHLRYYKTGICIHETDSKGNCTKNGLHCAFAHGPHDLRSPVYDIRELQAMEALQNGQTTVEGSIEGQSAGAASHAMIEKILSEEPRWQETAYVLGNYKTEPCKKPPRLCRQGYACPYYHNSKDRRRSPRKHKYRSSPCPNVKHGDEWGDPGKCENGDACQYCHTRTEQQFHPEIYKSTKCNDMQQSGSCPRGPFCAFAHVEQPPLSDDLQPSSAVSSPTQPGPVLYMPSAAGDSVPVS
Constant ends, left off below: GGGAGUUCUACAGUCCGACGAUC … CAACAGAGGAUUGAGCAUCA
Strand | bound/input enrichment
CGCAGAACGGAUGAAGCUCUUACACCAAGUGUCACGAGUCUGGAGAACAGAUGGGUUGAGCCGUUGUUCUUAUAAAUUAGUAUCUGUGGAACACAAUCCUUUAUAUAUCAACAUCACAGU | 0.461 ratio
UCGGGGUGGAAGUCCAUGAUUCAGUCUCAUCCCCAUUUAGUGGCAGAAGCGUUCCGAGCACCCGCAUCUUCACAGUGUCCACAGUUUGGUAUUCCACGCAAAAGGUUAAAGCAGUCUUGA | 0.118 ratio
UGUGGUGGAGAAGGUAUCUCAUUCCUCUCCAACAUCAUCUCCACUUUGCAUCUGUCUCUCUCCGUCUGCUUUUUUUCCACCGAUGUAACAGACCUGCAGCCAGCAAGACUCCGAGGGAAG | 0.113 ratio
GGGUCAGCUGCCGCCACUUCUAAUCCUCAUCAUGACAACGUCAGGUAUGGCAUUUCAAACCCCGAUGCAGCCAUUGAAGGAGCUUCAGAUGACAUGACUGUGGUAGAUGCAGCUUCAUUA | 0.122 ratio
UCUUGGUCUCCAAGUCCUGCACCUUACUUUGAAACACCACUGGCUCCCUUUCCCAAUGGCCGUUUUGUGAAUGGCUUUAGUUCACCAGGAUCUUACAAAACAAAUGCUGCUGCUAUGAAU | 0.756 ratio
GACUUUUAAUAAUGUUUUUGAAUUUCGUAUUCUUUCAUUCCACUGUGUAAAGUGCCCGACAUUUUCCAAUUUAAAAUUUUGCUUUUUAUCCUGGCACUGGCAAAAAGAACUGUGAAAGUG | 0.475 ratio
AACCUCCUUCCUACUGGUUUAGACUACACUUACAACAAGGAAAAUGCCCCUCGUGUGACCACCGAUUGAGAUUUAUACCACAUACCACACAUAGCCACAGAAACAUCAUCUUGAAAUAAA | 1.9 ratio
AGGACUUCAUUCCUCCAUGUUUUCUUCCCUUAUCUUACUGUCAUUGUCCUUAAACCUUAUUUCCGAAAAUUGAUGAAGUAACAUGUUGCAUGUGGCUUACUCUGGCUAUAUCUAAGCCCG | 0.677 ratio
UAGACUUCAACAAGAAAAUCCUUCAUACAGCCUGGCAUCCCAAGGAAAACAUCAUUGCUGCCGCAACUACAAACAAUCUGUAUAUAUUUCAAGACAAAGUGAAUUAGGCUGGCAUUCUCU | 0.66 ratio
AUUAUAAGAGAAACAGAAAAUGAUGAUCUUACAAAUGUAAUUCAGAAAAUGAUCUGUGAAUACCGUGAAGAAGUUACUCCUAUUGCUGUAGAAAUGACACAACAUCUGGCAAUGACAUUU | 0.105 ratio
AAACAUCUUCUCAAGCAGUCAACGUAGAAUGCUUGGGAAAUAGUCAUAAUUACCCACAUACCGUAAUUAAUAGAUGGUAAUUAAUUGAUCCUUGAUGUGAUGUUCUUUUGCAUAUUUCCU | 0.465 ratio

Set 3 — target: CCNB3, cyclin fold, Cln2 fusion (human); technique: yeast growth competition, sequencing; sample: yeast; notes: weak parent motif; relative to: not given; direction: higher = stronger binding
Starting sequence: SLBP docking peptide (human); ARYKRKLLINDFG; partner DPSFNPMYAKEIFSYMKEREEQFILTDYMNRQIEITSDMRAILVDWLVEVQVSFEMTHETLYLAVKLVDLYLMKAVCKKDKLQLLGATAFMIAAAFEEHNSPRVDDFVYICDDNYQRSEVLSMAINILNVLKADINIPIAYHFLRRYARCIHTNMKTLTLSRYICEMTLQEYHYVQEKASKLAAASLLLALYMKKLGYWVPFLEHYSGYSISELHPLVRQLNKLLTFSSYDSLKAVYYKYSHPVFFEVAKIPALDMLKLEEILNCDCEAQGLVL
Substitution | normalised enrichment score
R2Y | 0.57
I9K | 0.368
D11Y | 0.555
L7K | -0.00376
F12C | 0.179
G13E | 0.412
Y3G | 0.00713
R5K L8F | 0.491
L8I | 0.11
R2L | 0.0292
A1N | 0.355
N10K | -0.255
L8A | 0.163
I9V | 0.134
L8S | -0.084
L7V | 0.164
L8T | -0.103
K6N | 0.264
R5A | 0.3
K6I | 0.369
L8V | 0.527
N10H | 0.213

Set 4 — technique: aptamer microarray, sandwich; molecule type: DNA with 2'F-ANA; sample: in vitro; tested at: 200 nM; added: Cy3 exosite-II aptamer, 400 nM; direction: higher = stronger binding; strand: GGTTGGTGTGGTTGG
Target: Prothrombin, mature alpha-thrombin (F2, Homo sapiens, UniProt P00734)
Notes: whole 15-mer aptamer, many near background
Modification | mean fluorescence intensity [a.u.]
2'F-ANA at 2 4 5 11 12 13 14 | 47.6
2'F-ANA at 3 9 12 | 1370
2'F-ANA at 1 3 4 6 7 8 9 10 13 15 | 69.1
2'F-ANA at 2 3 5 9 12 14 15 | 73.9
2'F-ANA at 1 2 7 9 10 11 14 15 | 46.6
2'F-ANA at 1 2 4 5 8 9 11 13 14 | 50
2'F-ANA at 1 2 5 6 8 9 13 14 15 | 50.9
2'F-ANA at 2 4 7 9 10 11 12 13 15 | 100
2'F-ANA at 1 2 7 9 10 | 69.7
2'F-ANA at 1 2 5 6 9 10 11 12 14 15 | 50.2
2'F-ANA at 1 5 7 10 11 12 13 14 | 47
2'F-ANA at 1 3 4 5 8 15 | 68.2
2'F-ANA at 1 3 4 7 8 9 10 11 13 14 15 | 53.2
2'F-ANA at 2 5 6 9 11 12 13 14 15 | 49
2'F-ANA at 1 2 3 8 12 13 15 | 415
2'F-ANA at 2 5 6 8 9 10 12 14 15 | 58.5
2'F-ANA at 2 4 6 12 13 | 423
2'F-ANA at 3 4 5 7 8 10 11 13 | 75.9
2'F-ANA at 2 3 6 7 8 9 10 11 | 334
2'F-ANA at 3 5 8 9 13 15 | 133
2'F-ANA at 1 3 5 6 9 10 13 | 43.4
2'F-ANA at 1 4 5 6 7 8 9 10 13 14 15 | 58.2

A few entries again (set 4):
Modification | mean fluorescence intensity [a.u.]
2'F-ANA at 2 5 6 8 9 10 12 14 15 | 58.5
2'F-ANA at 2 4 6 12 13 | 423
2'F-ANA at 3 4 5 7 8 10 11 13 | 75.9
2'F-ANA at 2 3 6 7 8 9 10 11 | 334
2'F-ANA at 3 5 8 9 13 15 | 133
